Experimental data gathered from unrelated publications.
Numbers after ± are the reported error.
Cell line: A549

O=Cc1c2cc(Cl)ccc2n2c1c(-c1ccccc1)c(SC(F)(F)F)c1ccccc12
IC50 (cell growth or viability, MTT; 72 h): 50.1 µM

Brc1ccc(Nc2nc(NN=Cc3c[nH]c4ccccc34)nc(-n3ccnc3)n2)cc1
IC50 (cell growth, SRB; 120 h): 1.2 ± 0.01 µM

Cc1cccc(-c2cccc(C)n2)n1.[Cl-].[Cl-].[Ru+2].c1ccc(-c2ccccn2)nc1.c1ccc(-c2ccccn2)nc1
IC50 (cell growth or viability; 72 h, dark): > 100 µM

[Cl][Cu][Cl].c1ccc(-c2nnc(-c3ccc4c(c3)OCO4)[nH]2)nc1
IC50 (cell growth or viability, MTT; 24 h): 4.17 µM

Nc1cccc[n+]1Cc1cccc(C[n+]2ccccc2N)c1
IC50 (cell growth or viability, MTT; 24 h): 487 µM

C=CC(=O)Nc1cc(Nc2nccc(-c3c(-c4ccc(C(F)(F)F)cc4)n(C)c4ccccc34)n2)c(OC)cc1N(C)CCN(C)C
IC50 (cell growth or viability, MTT; 72 h): 0.414 µM

O=C1c2cccc3cccc(c23)C12NC(Cc1ccc(O)cc1)C([N+](=O)[O-])C2c1cccc([N+](=O)[O-])c1 (stereo not shown)
IC50 (cell growth or viability, MTT; 24 h): 81.2 µM

CC(C)c1cccc(C(C)C)c1[N+]#[C][Pt-]([Cl])([Cl])=[C](Nc1ccc(CN[C](Nc2c(C(C)C)cccc2C(C)C)=[Au][Cl])cc1)Nc1c(C(C)C)cccc1C(C)C
IC50 (cell growth or viability): > 100 µM

CC1=CC[C@]2(C(=O)O[C@H]3OC[C@@H](O)[C@@H](O)[C@@H]3OS(=O)(=O)O)CC[C@]3(C)C(CCC4[C@@]5(C)CC[C@H](O)C(C)(C)C5CC[C@]43C)C2[C@H]1C (stereo partly shown)
IC50 (cell growth or viability, MTT): 3.5 µM

COc1c(O)c(Br)c2oc3c(Br)c(O)c(CC=C(C)C)c(O)c3c(=O)c2c1CC=C(C)C
IC50 (cell growth or viability; 48 h): 14.3 µM

[Cl-].[Cl-].[Ru+2].c1ccc2nc(-c3ccc4ccccc4n3)ccc2c1.c1cnc2c(c1)ccc1cccnc12.c1cnc2c(c1)ccc1cccnc12
IC50 (resazurin; 72 h, added: indigo light 450 nm, 29.1 J/cm2): 6 µM

CCCc1cc(O)nc(SCCOC(=O)[C@]2(C)CCC[C@]3(C)c4ccc(C(C)C)cc4CCC23)n1 (stereo partly shown)
IC50 (cell growth or viability, MTT; 48 h): 11.9 µM

Nc1nc(-c2ccc(-n3cccc3)cc2)cc(-c2ccc(Cl)cc2Cl)n1
IC50 (cell viability, MTT; 24 h): 49.4 µM

Clc1ccc(NN=C(c2ccccc2)c2ccccn2)nc1
IC50: 0.25 µM

C=CC(=O)Nc1cc(Nc2nccc(-c3c(-c4cccc(-c5ccccc5)c4)n(C)c4ccccc34)n2)c(OC)cc1N(C)CCN(C)C
IC50 (cell growth or viability, MTT; 72 h): 0.4 µM

N#Cc1cccc(-c2ccc(=O)n(Cc3cccc(-c4ncc(OCC5CCN(CC(=O)NCCOCCOCCNc6ccc7c(c6)C(=O)N(C6CCC(=O)NC6=O)C7=O)CC5)cn4)c3)n2)c1 (stereo not shown)
IC50 (cell growth or viability, CCK-8; 72 h): 1.15 µM

COc1ccc([C@@H]2C3CCCN3[C@@]3(c4ccccc4-c4nc5ccccc5nc43)[C@H]2C(=O)c2nc3ccccc3[nH]2)cc1 (stereo partly shown)
IC50 (cell growth or viability, MTT; 72 h): 0.146 µM

Oc1ccccc1-c1nn(-c2ccccn2)[n+](-c2ccccc2)n1
IC50 (cell growth, resazurin): 28 ± 4 µM

CC(=O)O[C@H]1C[C@H]([C@H](C)CCC=C(C)C)[C@@]2(C)CC=C3C(=CC[C@H]4C(C)(C)[C@@H](O)CC[C@]34C)[C@]12C
IC50 (cell viability, MTT; 72 h): inactive

CNC(=O)c1c(C)oc2cc(Oc3ncnc4cc(OC)c(OCCCCCCC(=O)NO)cc34)ccc12
IC50 (cell growth, CCK-8; 48 h): 4.56 ± 0.33 µM

C=CC(=C)CC[C@]1(C)[C@H](C)CC[C@@]23C(=C[C@H](OC(=O)CCCCC)C[C@@H]12)[C@@H](OC(C)=O)O[C@H]3OC(C)=O
IC50 (cell growth or viability, SRB): 2.29 µM

C1=CCCC=CCC1.F[P-](F)(F)(F)(F)F.[Pt+][c]1ccccc1P(=Nc1ccccc1)(c1ccccc1)c1ccccc1
IC50 (cell growth or viability, MTT; 24 h): 2.01 µM

COc1c(O)cc2oc3cc(O)c4c(c3c(=O)c2c1CCC(C)(C)O)OC(C)(C)CC4
IC50 (cell growth or viability; 48 h): > 40 µM

CC(C)(C)N=[C](NCc1cccc(N)c1)[AuH][Cl]
IC50 (cell growth or viability): > 100 µM

CC(=O)[O][Pt]1([O]C(C)=O)[O]C(=O)C(=O)[O]1.NC1CCCCC1N
IC50 (cell growth or viability): 35.1 µM

Cc1ccc(C(C)C)cc1.O=C(N=P(c1ccccc1)(c1ccccc1)c1ccccc1)c1ccccn1.[Cl-].[Cl-].[Ru+2]
IC50 (cell growth or viability, MTT; 24 h): 9.5 µM

N#Cc1cccc(-c2ccc(=O)n(Cc3cccc(-c4ncc(OCC5CCN(CCCCCCCCC(=O)Nc6cccc7c6C(=O)N(C6CCC(=O)NC6=O)C7=O)CC5)cn4)c3)n2)c1 (stereo not shown)
IC50 (cell growth or viability, CCK-8; 72 h): 45.6 µM

Cc1ccc(C(=O)/C=C/c2cn(CC(=O)Nc3nc(-c4ccccc4)cs3)nn2)cc1
IC50 (cell growth or viability, MTT; 72 h): 0.151 µM

O=S([O-])c1ccccc1N=Cc1ccccc1[O-].[Cu+2].c1c[nH]cn1
IC50 (cell viability, MTT; 24 h): 13 ± 0.95 µM

CC(=O)N[C@H]1C(n2cc([C@@](C)(O)c3cccc(F)c3)nn2)O[C@H](COCc2ccccc2)[C@H](OCc2ccccc2)[C@@H]1OCc1ccccc1 (stereo partly shown)
IC50 (cell growth or viability, MTS; 72 h): 65.7 µM

C[C@]12CC/C(=N\OCCN3CCCC3)C=C1CCC1C2CC[C@]2(C)/C(=C/c3ccccn3)CCC12 (stereo partly shown)
IC50 (cell growth or viability, MTT; 72 h): 2 µM

O=C(CN1C(=O)S/C(=C\c2ccccc2Br)C1=O)Nc1ccc(C(=O)Nc2ccc(F)cc2)cc1
IC50 (cell growth or viability, MTT): 19.8 µM

CC(=O)O[C@@H]1CC[C@@]2(C)[C@@H](CC[C@]3(C)[C@@H]2C(=O)C=C2[C@@H]4[C@@H](C)[C@H](C)CC[C@]4(C)CC[C@]23C)[C@@]1(C)C(=O)NCCNC(=O)CC[P+](c1ccccc1)(c1ccccc1)c1ccccc1
IC50 (cell growth or viability, MTT; 48 h): > 30 µM

O=C(NCCN1CCOCC1)c1cc2c3ccccc3n3c(=O)ccc(n1)c23
IC50 (cell growth or viability, MTT; 72 h): 2.3 µM

CN1CCC2(CC1)C/C(=N\NC(=O)Nc1ccc([N+](=O)[O-])cc1)c1ccccc1O2
IC50 (cell growth or viability, MTT; 48 h): 71.5 µM

Cc1ccc(C2=NN(C3=NC(=O)/C(=C/c4ccccc4)S3)C(c3ccc(F)cc3)C2)cc1 (stereo not shown)
IC50 (cell growth or viability, MTT): 66.5 µM

Nc1ncnc2c1sc1sc3c(N)ncnc3c12
IC50 (cell growth or viability, MTT): 4.69 µM

N#Cc1c(F)c(Cl)c2nc(SCC3CCCO3)nc(N)c2c1F (stereo not shown)
IC50 (cell growth or viability, MTT; 96 h): 6 µM

CCCC(CCC)C(=O)NCCNC(=O)[C@]1(C)[C@@H]2CC[C@]3(C)[C@H](C(=O)C=C4[C@@H]5[C@@H](C)[C@H](C)CC[C@]5(C)CC[C@]43C)[C@@]2(C)CC[C@H]1OC(C)=O
IC50 (cell growth or viability, MTT; 48 h): > 30 µM

O=C(c1ccc[nH]1)c1ccccc1O
IC50 (cell growth or viability, resazurin; 24 h): > 64 µg/mL

CC(=O)OC[C@]1(C)CCC[C@]2(CO)[C@@H]1CC[C@@]13C[C@@H](C[C@H](O)[C@H]12)[C@H](C)C3=O
IC50 (cell growth or viability, MTT): 9.8 µM

CC1=CC(c2ccccc2)=[O+][Pt-2]([NH3+])([NH3+])[O]1.O=[N+]([O-])[O-] (stereo not shown)
IC50 (cell growth or viability, MTT): 7 µM

Cc1cc(C=O)cc(C)c1Oc1cc(Nc2ccc(C#N)cn2)nc2ccncc12
IC50 (48 h): > 126 µM

CC[C@@]1(C)CC[C@H]2[C@@](C)(CC[C@@]3(C)[C@@H]4CC(C)(C)CC[C@]4(C)CC[C@]23C)[C@@H]1CCC(=O)O
IC50 (cell growth or viability, SRB): 34 µM

COc1cc(OC)c(/C=C/C(=O)c2c(OC)cc(OC)cc2OC)c(OC)c1
IC50 (cell growth or viability, MTT; 48 h): > 100 µM

CC(=O)O[C@@H]1CC[C@@]2(C)[C@@H](CC[C@]3(C)[C@@H]2C(=O)C=C2[C@@H]4[C@@H](C)[C@H](C)CC[C@]4(C)CC[C@]23C)[C@@]1(C)C(=O)NCCNC(=O)CCCCCCC[P+](c1ccccc1)(c1ccccc1)c1ccccc1
IC50 (cell growth or viability, MTT; 48 h): 18.4 µM

CCN(CC)CCN1C(=O)c2ccc3c4cccc5cccc(c6ccc(c2c36)C1=O)c54
IC50 (cell growth or viability, SRB; 72 h): 4.1 µM

CCn1[c]([Au-][Cl])[n+](CC)c2ccc(C(=O)OC)cc21
IC50 (cell growth or viability, crystal violet; 72 h): 24 µM

Cc1cc(C)c([N+]#[C][Pt-2]([Cl])([Cl])[C]#[N+]c2c(C)cc(C)cc2C)c(C)c1
IC50 (cell growth or viability): > 100 µM

COC(=O)CCC(=O)[O][Pt-2]1([Cl])([Cl])([O]C)[NH2+]CC[N+]1(C)C
IC50 (cell growth or viability, MTT; 96 h): 38 µM

CCOC12C(O)C(OC)C3(O)CC(C1C3OC(=O)c1ccccc1)C13C(OC)CCC4(COC)CN(C)C1C2C(OC)C43 (stereo not shown)
IC50 (cell growth or viability, MTT): 14.5 µM

CCCCSc1nc(N)c2c(F)c(C#N)c(F)c(F)c2n1
IC50 (cell growth or viability, MTT; 96 h): 41.1 µM

Oc1ccc(C(=NNc2ccccc2)c2ccc(O)cc2)cc1
IC50 (cell growth or viability, ATP luminescence; 72 h): 34.4 µM

COc1ccc(/C=C/C2=[N+]3C(=C(CO)c4c(C)cc(/C=C/c5ccc(OC)cc5)n4[B-]3(F)F)C(C)=C2C=O)cc1
IC50 (cell growth or viability, resazurin; dark): > 100 µM

CC(C)c1cccc(C(C)C)c1[N+]#[C][Pd-]([Cl])([Cl])=[C](Nc1ccc(CN[C](Nc2c(C(C)C)cccc2C(C)C)=[Au][Cl])cc1)Nc1c(C(C)C)cccc1C(C)C
IC50 (cell growth or viability): > 100 µM

Some of these lines once more:
CN1CCC2(CC1)C/C(=N\NC(=O)Nc1ccc([N+](=O)[O-])cc1)c1ccccc1O2
IC50 (cell growth or viability, MTT; 48 h): 71.5 µM

C1=CCCC=CCC1.F[P-](F)(F)(F)(F)F.[Pt+][c]1ccccc1P(=Nc1ccccc1)(c1ccccc1)c1ccccc1
IC50 (cell growth or viability, MTT; 24 h): 2.01 µM

O=C(NCCN1CCOCC1)c1cc2c3ccccc3n3c(=O)ccc(n1)c23
IC50 (cell growth or viability, MTT; 72 h): 2.3 µM

O=C(c1ccc[nH]1)c1ccccc1O
IC50 (cell growth or viability, resazurin; 24 h): > 64 µg/mL

Cc1cc(C=O)cc(C)c1Oc1cc(Nc2ccc(C#N)cn2)nc2ccncc12
IC50 (48 h): > 126 µM

[Cl-].[Cl-].[Ru+2].c1ccc2nc(-c3ccc4ccccc4n3)ccc2c1.c1cnc2c(c1)ccc1cccnc12.c1cnc2c(c1)ccc1cccnc12
IC50 (resazurin; 72 h, added: indigo light 450 nm, 29.1 J/cm2): 6 µM

C=CC(=O)Nc1cc(Nc2nccc(-c3c(-c4cccc(-c5ccccc5)c4)n(C)c4ccccc34)n2)c(OC)cc1N(C)CCN(C)C
IC50 (cell growth or viability, MTT; 72 h): 0.4 µM
